Assay results pooled from the literature.
Every numbered part comes from another study and shows a few of its results, in no order. Positions count from the first letter of the parent shown.

Series 1
Target: RING finger protein unkempt homolog, zinc fingers 1-6, GST-SBP tag (UNK, Homo sapiens, UniProt Q9C0B0, residues 30-357)
Technique: RNA Bind-n-Seq
Form: RNA
Medium: in vitro
Tested at: not given
Notes: RNA with constant flanks, human-mouse chimeric sites, ends assumed
Relative to: input RNA pool
Reading: higher = stronger binding
Target sequence (chain): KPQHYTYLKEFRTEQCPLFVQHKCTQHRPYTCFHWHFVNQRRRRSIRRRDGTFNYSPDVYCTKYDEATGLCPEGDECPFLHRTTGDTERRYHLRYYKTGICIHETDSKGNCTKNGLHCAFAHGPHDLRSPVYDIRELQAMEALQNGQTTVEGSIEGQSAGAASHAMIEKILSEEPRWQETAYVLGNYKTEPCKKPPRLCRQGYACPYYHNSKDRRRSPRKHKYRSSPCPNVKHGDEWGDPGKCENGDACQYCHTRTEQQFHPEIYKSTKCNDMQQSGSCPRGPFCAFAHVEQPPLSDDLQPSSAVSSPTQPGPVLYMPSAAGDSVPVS
| Strand | bound/input enrichment |
| --- | --- |
| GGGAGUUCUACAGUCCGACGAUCAUAUUUCAUAUUGCAAAGAUGUUUACAAGUAUUUUAAUUUAAGUUCAGUGAACUUUUUUGUAGCUGGGUUAAAUCUUUUUAUUUUAGGUAUGGCCUUAUGGCAAAGACACUGUAUUAUUUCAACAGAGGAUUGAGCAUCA | 2.3 ratio |
| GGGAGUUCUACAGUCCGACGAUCUCUGGUCAUACUCGUGCGUAUGGUGUUUGCUUUGUGGACACUUCACUGGGCAAGUUUUUCAUCGGCCAGUUUUCGGAUGACCGCCACUGUUCCAGAUUUAGGACGCUAGUGGCUCACUAUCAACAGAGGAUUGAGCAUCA | 0.196 ratio |
| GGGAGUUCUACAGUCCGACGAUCGGAAGUACAAUGAUGGAGAUUGAUGGUGACAAAGGCAAACAAGGCGGGCCCACCUACUACAUAGACACCAAUGCCCUGCGUGUUCCGAGGGAGAACAUGGAGGCCAUCUCACCACUCAAGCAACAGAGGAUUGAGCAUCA | 0.226 ratio |
| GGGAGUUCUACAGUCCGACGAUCCGAGACAAGACAUCCAGGAACAUGCGAGGCUCCCGGAUGAAUGGGUUGCCUAGCCCCACUCACAGCGCCCACUGUAGCUUCUACCGAACCAGAACCUUGCAGGCACUGAGUAAUGAGAAGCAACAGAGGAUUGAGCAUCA | 0.0956 ratio |
| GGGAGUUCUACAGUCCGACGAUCGUUGCCAGCUUCCGGUUCCGUUGGGCUCGGUUCUCUCCUGAGCUACGUGUCUCUACGUUUUAGGUGUGCCAUCCAACGGCAGUCAUGCAGGUAAUGCAGUUUGUGGAGCCCAGCCGGCAGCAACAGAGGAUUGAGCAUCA | 0.171 ratio |
| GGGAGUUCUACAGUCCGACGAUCUCUGGUCACACUCGUGUGUAUGGUGUUUGCUUUGUGGACACUUCACUGGGCAAGUUUUUCAUAGGUCAGUUUUCAGAUGACCGCCACUGUUCCAGAUUUAGGACGCUAGUGGCUCACUAUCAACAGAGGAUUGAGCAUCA | 0.283 ratio |
| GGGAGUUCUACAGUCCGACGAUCUCCUUGGACCCCAGUCAUAUAGGUGACCUGCAAAAAGCAGACACCAGUAGUCAAGGUGCUUUAGUGUUUCUCUCAAAGGACUACGAAAUAGAAAGUCAAAAUCCCCUGGCCUCUCCUACGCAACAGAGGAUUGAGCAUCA | 1.97 ratio |
| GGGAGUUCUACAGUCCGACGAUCGGACCAUAAUCAUGGAGGACAUGAUGGAGCUCCCCAAAGCGCGCGUCAACGCCAGCAUGUUACCACAGUAUAUCGACCGGCCCGUGUGCUUCGUGGGGAAGCUGGAAAAGAUUCAUCCCACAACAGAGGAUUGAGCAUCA | 0.103 ratio |

Series 2
Target: RNA binding protein fox-1 homolog 2, RRM domain, GST-SBP tag (RBFOX2, Homo sapiens, UniProt O43251-10, residues 100-194)
Technique: RNA Bind-n-Seq
Form: RNA
Medium: in vitro
Tested at: 365 nM
Notes: natural RNA segment, single round, ends assumed
Relative to: no-protein control
Reading: higher = stronger binding
Target sequence (chain): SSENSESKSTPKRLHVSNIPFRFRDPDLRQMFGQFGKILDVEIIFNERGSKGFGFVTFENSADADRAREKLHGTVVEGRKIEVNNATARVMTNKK
| Strand | RBNS enrichment (R) |
| --- | --- |
| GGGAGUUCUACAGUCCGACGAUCUACAAACAAACACAUGGGGAGACUGAAUGAGGAUCAUGAAUACAGCGAAGAGAUCCCUGAAAAGCGGGAGAGGCUGUGUCUGCAGUGUGCAGACUGUGACCCUCGUGUUUUGGAAUUCUCGGGUGCCAA | 0.417 |
| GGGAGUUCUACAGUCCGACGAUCAUCCAUGCAGUUUUAUGUCUUCAUAUAACUGGUAUCUUGUGAGUUUGCAAGCAAUGGGAUGAGCAAGAAAAAAAGGACGCAUGGAGGAGAAAAAUUUGAACGAGGCUAGUUGGAAUUCUCGGGUGCCAA | 2.87 |
| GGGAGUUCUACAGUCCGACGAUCUUUUCUACGUUGGAACGUGCCCCGGAAUGUGGCCGUCGGCACACUUCUCAGGACAAUGAAUCCUUCCUGUUUUUCUUUUUAUGCCACACAGUGCAUUGUUUUUCUACCUGUGGAAUUCUCGGGUGCCAA | 0.818 |
| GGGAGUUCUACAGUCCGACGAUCUCCAAGGAAUCUCUUCUAUUGAGGGCUAAAGAUAAAGAAUUUGGCACACAAAAAAAAUGCAGACAUCCUUGUGAAUUUUGAGUGCUUAUGGGGUCAUCUGGUUAUUUAGGUGGAAUUCUCGGGUGCCAA | 0.571 |
| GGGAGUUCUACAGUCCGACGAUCAUCCAAGCCGCAUAUCUACUGCAUUAAAUUUGUCCAUUUGGUUAUUCAUAAUCGGGUAUUGCAUUUUGCCUUCCCUGUCCAUACCUCAAAUUGAUUGAUACCUCAGUUUAUGGAAUUCUCGGGUGCCAA | 2.4 |
| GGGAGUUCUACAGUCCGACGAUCUUAUAGGCAGUCACUAUAAAUUAUAAUUGUGGGCACUAGCAAUAUACAUAACAGAAGAAACAACAAUAAGGAUACAAUUGUAUAUAAACACCUACUAUAACAUCCAUGUGUGGAAUUCUCGGGUGCCAA | 0.474 |
| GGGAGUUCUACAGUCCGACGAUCUCCCAAAGUGCUGGGAUUACAGGCGCAAGCCACCCAGCCCAGCUUCUUUCCAUUCCUUGAUAGGCGAGUAUUCCAAAGCUGGUAUCGUAGCUGCCCUAAUGUUGCAUAUUUGGAAUUCUCGGGUGCCAA | 0.347 |
| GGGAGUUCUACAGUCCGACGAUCUUAAAAAAAAUACAAUAAAGUAAAAACCGCAGUUGGAACUCUUUCCUCUCCCCAGCCCCCCUUACCUUCACUCCCAUACUGGACAAGACAUUUUGGACAUGAGUUCAAGGUGGAAUUCUCGGGUGCCAA | 0.647 |

Series 3
Target: CCND2, cyclin fold, Cln2 fusion (human)
Technique: yeast growth competition, sequencing
Medium: yeast
Notes: weak parent motif
Relative to: not given
Reading: higher = stronger binding
Starting sequence: TICRR docking peptide (human); TKVRRNLFNQELL
| Change | normalised enrichment score |
| --- | --- |
| N6A | 0.118 |
| F8L | 0.683 |
| L7A | -0.244 |
| V3A | -0.357 |
| R5K F8L | 0.356 |
| L12A | -0.412 |
| T1A | 0.159 |
| F8A | -0.184 |
| R5A | 0.38 |
| R5A L7A | 0.211 |

Series 4
Target: Ras GTPase-activating protein-binding protein 1, full length (G3BP1, Homo sapiens, UniProt Q13283)
Sequence of UniProt Q13283 (whole entry, looked up): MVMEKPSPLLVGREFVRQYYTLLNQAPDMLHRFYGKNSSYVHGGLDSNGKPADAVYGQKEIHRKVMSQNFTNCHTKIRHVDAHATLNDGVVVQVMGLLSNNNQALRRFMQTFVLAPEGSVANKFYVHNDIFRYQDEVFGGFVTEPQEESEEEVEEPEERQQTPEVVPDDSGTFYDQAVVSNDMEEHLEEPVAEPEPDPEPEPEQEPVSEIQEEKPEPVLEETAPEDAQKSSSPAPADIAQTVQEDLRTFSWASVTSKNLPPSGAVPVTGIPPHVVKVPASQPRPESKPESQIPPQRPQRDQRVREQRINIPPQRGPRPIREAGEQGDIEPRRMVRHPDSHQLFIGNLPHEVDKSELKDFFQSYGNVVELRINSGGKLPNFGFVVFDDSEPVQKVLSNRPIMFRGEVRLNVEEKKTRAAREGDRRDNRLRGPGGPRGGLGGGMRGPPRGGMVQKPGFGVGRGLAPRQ
Technique: RNA Bind-n-Seq
Form: RNA
Medium: in vitro
Tested at: 200 nM
Notes: whole 134-nt RNA, ends assumed
Together with: 150 mM KCl
Relative to: input library
Reading: higher = stronger binding
| Strand | log2 enrichment |
| --- | --- |
| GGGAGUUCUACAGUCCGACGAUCCCUGUGCUACACAUCGUAUGUACCGAAUCGGGAAAAAAAGGGAAAAAAAGGGUUUUUGGGAAAGUAUUAUGUUACGCCGUUCGGAUCUGCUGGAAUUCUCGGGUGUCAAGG | -0.818 |
| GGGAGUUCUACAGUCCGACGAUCGGGACGUCAGCAUCGGCAUCAAGUGUGCCCCUGGAGUGGUAGGCCCCGCCGAAGCUGACAUCGACUUCGACAUCAUCCGCAAUGACAAUGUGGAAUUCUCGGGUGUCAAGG | -2.03 |
| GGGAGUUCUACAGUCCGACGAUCGCAGGAAGUAAAAACAAAUGGAAAUGCUUCGGACAGUGGCAGGGGUGGGGGUUGCUAAGGAAAGGGUGGGAUGGGAGUGGGUAAAGAGUUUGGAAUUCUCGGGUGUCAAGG | 1.16 |
| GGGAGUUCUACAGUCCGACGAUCGUCCUGUGCUACACAUCGUAUGUACCGAAUCGGGUUUUUGGGUUUUUGGGGUUUUUGGGAAAGUAUUAUGUUACGCCGUUCGGAUCUGCAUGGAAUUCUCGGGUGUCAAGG | -0.347 |
| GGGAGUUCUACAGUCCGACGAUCCCUCAAGUCCUGUGCUACACAUCGUAUGUACCGAAUCGGUGGGUGGGGUGGGGAAAGUAUUAUGUUACGCCGUUCGGAUCUGCACUUCCAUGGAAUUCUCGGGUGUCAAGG | 0.854 |
| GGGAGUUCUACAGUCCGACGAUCCAAGUCCUGUGCUACACAUCGUAUGUACCGAAUCGGGAGGGUUUUUGGGAAAGGGAAAGUAUUAUGUUACGCCGUUCGGAUCUGCACUUCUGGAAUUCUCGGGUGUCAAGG | 0.357 |
| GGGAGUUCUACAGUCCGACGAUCUGGCCCUGGUGGCAUGCGGGGAGGAAGAGGUGGCCUCAUGGAUCGUGGUGUUCCCGGUGGAAUGUUCAGAGGUGGCCGUGGUGGAGACAGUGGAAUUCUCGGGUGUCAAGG | 0.378 |
| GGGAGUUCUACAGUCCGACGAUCUGACUUUAGGAGAUACCUUAACUCGACGUUCCAUUAGCCAGCAGAAGUCCGGAGUUUCCAUUACCAUUGAUGACCCAGUCCGAACUGCCCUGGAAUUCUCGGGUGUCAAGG | -0.0508 |
| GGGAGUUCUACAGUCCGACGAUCAAGUCCUGUGCUACACAUCGUAUGUACCGAAUCGGGAAAGGGUUUUUUUGGGAGGGAAAGUAUUAUGUUACGCCGUUCGGAUCUGCACUUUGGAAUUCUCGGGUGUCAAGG | 0.2 |

Excerpt of the above (series 2):
| Strand | RBNS enrichment (R) |
| --- | --- |
| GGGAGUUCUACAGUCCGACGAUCUUAAAAAAAAUACAAUAAAGUAAAAACCGCAGUUGGAACUCUUUCCUCUCCCCAGCCCCCCUUACCUUCACUCCCAUACUGGACAAGACAUUUUGGACAUGAGUUCAAGGUGGAAUUCUCGGGUGCCAA | 0.647 |
| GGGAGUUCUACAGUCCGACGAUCAUCCAUGCAGUUUUAUGUCUUCAUAUAACUGGUAUCUUGUGAGUUUGCAAGCAAUGGGAUGAGCAAGAAAAAAAGGACGCAUGGAGGAGAAAAAUUUGAACGAGGCUAGUUGGAAUUCUCGGGUGCCAA | 2.87 |
| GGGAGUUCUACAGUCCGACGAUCAUCCAAGCCGCAUAUCUACUGCAUUAAAUUUGUCCAUUUGGUUAUUCAUAAUCGGGUAUUGCAUUUUGCCUUCCCUGUCCAUACCUCAAAUUGAUUGAUACCUCAGUUUAUGGAAUUCUCGGGUGCCAA | 2.4 |
